Results from different studies.
Parts stem from different laboratories: compare values within a part only. Substitutions count along the parent as printed.

Block 1
Target: Histone acetyltransferase KAT6A, winged helix 2, GST fusion (KAT6A, Homo sapiens, UniProt Q92794, residues 85-181)
Technique: protein binding microarray
Molecule type: double-stranded DNA, one strand shown
Matrix: in vitro
Tested at: not given
Notes: 8-mer, flanks averaged, mean of 2 arrays, mostly near background
Relative to: not given
Reading: higher = stronger binding
Residues (chain): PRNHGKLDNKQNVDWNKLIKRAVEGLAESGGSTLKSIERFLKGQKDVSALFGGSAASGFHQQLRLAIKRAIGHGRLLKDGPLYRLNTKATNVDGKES
Oligonucleotide | E-score
GTCCCTGA | -0.193
GAGCAGAA | 0.0948
AGGAAACG | -0.0862
AGACTCTA | -0.261
TTTTAAAA | 0.223
AGGCGTAA | -0.0191
CGTGTTTA | -0.00239
AGTAGTTG | -0.0173
ATCAGTGA | 0.0973
ATTTATCG | 0.00754
CAGCAACG | 0.0558
CTAAATTA | 0.114
ATTCAGGC | 0.0818
AACCCGGA | 0.0366
ATGGCGGC | 0.0858
GTACGCAA | -0.0207
TCTAGCAA | 0.0961

Block 2
Target: RNA binding protein fox-1 homolog 2, RRM domain, GST-SBP tag (RBFOX2, Homo sapiens, UniProt O43251-10, residues 100-194)
Technique: RNA Bind-n-Seq
Molecule type: RNA
Matrix: in vitro
Tested at: 365 nM
Notes: natural RNA segment, single round, ends assumed
Relative to: no-protein control
Reading: higher = stronger binding
Shared flanks, not repeated: GGGAGUUCUACAGUCCGACGAUC … UGGAAUUCUCGGGUGCCAA
Residues (chain): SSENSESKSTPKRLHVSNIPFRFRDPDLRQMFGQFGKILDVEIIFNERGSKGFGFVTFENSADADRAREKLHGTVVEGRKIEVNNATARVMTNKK
Oligonucleotide | RBNS enrichment (R)
UGAUGCACACUUUUGCAAGCGUGUAAGAUGUUACCUGGUUUGUCUCUUUUGGAAAACAAAAAUCAGAAGGCUGCAUUCUAGAGGGCAGAGAAAUUCCCCCGAAGACUGAG | 0.326
GCCCCAUCUAUAUUAAAGGAAUCCUGUCUUUUUUUGUUUGUUUGUUUUUAAAUAUUGUGAUGUUUUAAGAGCCGAUGCUGGCUUCUUUUUUGCAUGUUACAGUUUUCUGG | 18.4
GGAAGAGUGACCUGGCAUCUUGGAAAUCAUUGUGUGUCUUCAGGAGAAUGUGCAGUGUCUUGUAACAACUAAUUAUAAUGCAAAUUAGGGCUACAUUGUAAUCUGCUUUG | 2.53
ACUGUUUCAGUAGCCAAUCCUCUUUCUUAGUAUAUGAAAGGACAGGGAUUUUUGUUCUUGUUGUUCUCGUUGUUGUUUUAAGUUUACUGGGGAAAGUGCAUUUGGCCAAA | 1.27
AGGCAUGAAGUCAGCCUCCCAAGGCAGGAUCUGUUGUUCAUUACCCCAUGGCAUCCUUUCAGGACAACCCCAGAGGGUGUUGUGAUGGGGAGCAGCAGGCCUGGGGCAAG | 1.33
ACUUUUUAAAUCAUGUUCCCCCUAAACAUGGCUGUUAACCCACUGCAUGCAGAAACUUGGAUGUCACUGCCUGACAUUCACUUCCAGAGAGGACCUAUCCCAAAUGUGGA | 23.6
GCUCCCAUUCCAAACUGUUAGUCCCCAACCUUGUGGUCACAUCAGAGGUCAACAGCAGAACAGAGGCAGGUCAGGGUUGUCCGCUCUGAUUAGCAGAACGACAGCCCCUU | 0.306
ACUGGCGUUUAUCAGGUACCUUAGAUUGGUCACUUAUACAGCUAAUUUUAUUCGUAGAAAUCAGUAGAAAAAAAAAGUCUUGGGAACCUUCCAUCUGAUUUGCCUGGCCA | 0.472
GUUAGCCUCCACCACCCUUUCCCCCUUCUCUUAGUUAUUGCUGAAGAGGGUUGGUAUAAAAAUAAUUUUAAAAAAGCCUUCCUACACGUUAGAUUUGCCGUACCAAUCUC | 0.538
CCUCCCAGAAGUCAGUCAUCCCCAGGCCGUGCACCCUUUUCAGCUGGAUGAGAGCCAGGGAUGCAUUCUCUCCAAACAGCUACCCUGGCCCAUUUUAAGGUAAUCUCAUU | 0.632
UGACUUUCCUGUUGAAGAGAUUACCUACGUCUGGCCAGAGGAGAGAAUUCAGAGCACGGAACUUUCCAAGAACUGGUGUUAACAUCUUGUACUGUGGCCACGAUUUGUCC | 0.401
CAGUGUUAUACCUAAAGCUAAAAAAAAGCAAGGGUUUGUCAUAGAGGGAACCUCUAAAUAAUUUCAGGGGUAGGGGAGAUGUUGUCAAUAGGAAAUGGGAUAAAAUAUCA | 0.834

Block 3
Target: Ras GTPase-activating protein-binding protein 1, C-terminal RGG region (G3BP1, Homo sapiens, UniProt Q13283)
Sequence of UniProt Q13283 (whole entry, looked up): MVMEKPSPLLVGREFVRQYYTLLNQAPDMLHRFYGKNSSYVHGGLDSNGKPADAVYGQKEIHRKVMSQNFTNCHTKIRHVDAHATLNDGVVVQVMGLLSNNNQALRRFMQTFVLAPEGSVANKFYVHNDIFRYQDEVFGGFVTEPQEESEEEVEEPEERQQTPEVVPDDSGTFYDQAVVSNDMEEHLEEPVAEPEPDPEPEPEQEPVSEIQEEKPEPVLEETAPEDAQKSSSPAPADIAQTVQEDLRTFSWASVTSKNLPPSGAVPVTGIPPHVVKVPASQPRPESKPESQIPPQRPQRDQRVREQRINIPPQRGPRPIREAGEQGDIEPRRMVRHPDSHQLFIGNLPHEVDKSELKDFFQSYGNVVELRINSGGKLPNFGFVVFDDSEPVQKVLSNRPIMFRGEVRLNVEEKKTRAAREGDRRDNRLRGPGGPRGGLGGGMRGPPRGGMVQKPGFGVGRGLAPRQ
Technique: RNA Bind-n-Seq
Molecule type: RNA
Matrix: in vitro
Tested at: 1 µM
Notes: whole 134-nt RNA, ends assumed
Together with: 150 mM KCl
Relative to: input library
Reading: higher = stronger binding
Shared flanks, not repeated: GGGAGUUCUACAGUCCGACGAUC … UGGAAUUCUCGGGUGUCAAGG
Oligonucleotide | log2 enrichment
CCUCAAGUCCUGUGCUACACAUCGUAUGUACCGAAUCGGAAGGAAGGGGAAGGAAAGUAUUAUGUUACGCCGUUCGGAUCUGCACUUCCA | -1.37
CACAGACGACACGCACCCACACAGACACAGAGGGAAGGGGUUGGGAUGGGGACAGGGUGCACAGCAGGGCGGGGUAGGACCCCAGCCCCU | -0.359
UCCUGUGCUACACAUCGUAUGUACCGAAUCGGGGUUUGGGGUUUGGGGUUUUUUUGGGGAAAGUAUUAUGUUACGCCGUUCGGAUCUGCA | 2.99
AGUCCUGUGCUACACAUCGUAUGUACCGAAUCGGGGUUUUGGGUUUUGGGUUUUGGGAAAGUAUUAUGUUACGCCGUUCGGAUCUGCACU | 0.973
CACAGACAACACGCAAACACACAGACACAGAGGGAAGGGGUUGGGAUGGGGACAGGGUGCACAGCAGGGCGGGGUAGGACCCCAGCCCCU | -0.342
UCAAGUCCUGUGCUACACAUCGUAUGUACCGAAUCGGGGAAGGGGAAGGGAAGGAAAGUAUUAUGUUACGCCGUUCGGAUCUGCACUUCC | -0.847
GCAGGAAGUAAAAACAAAUGGAAAUGCUUCGGAUAGUGGCAGGGGUGGGUGUUGCUAAGGAAAGGGUGGGAUGGGAGUGGGUAAAGAGUU | 1.48
ACGCUCCAUGAAAGCUAGGAGGGAGUGAAAUAUCAGUGAUCAUCGCAAGGAAGGAGGCAGACAAGAGUAAGGCACACCUGACUCUUAGGA | -1.65
CCUGUGCUACACAUCGUAUGUACCGAAUCAAAUUUUUUUAAAUUUUUUUAAACCCCCAAAAAAGUAUUAUGUUACGCCGUUCGGAUCUGC | -0.877
CUCAAGUCCUGUGCUACACAUCGUAUGUACCGAAUCGGUGGAAAGGUUUUUGGAAAGUAUUAUGUUACGCCGUUCGGAUCUGCACUUCCA | -1.03
UCAAGUCCUGUGCUACACAUCGUAUGUACCGAAUCGGAAAGGGAAAGGGGAAAGGAAAGUAUUAUGUUACGCCGUUCGGAUCUGCACUUC | -1.58
ACCAUGCAGGUCGGCAUCUUUGGGAAGUGGGGCAAGGGGGGGAUAGGGAGGGGGGUAACACUUUGGGAACAGGUGGUCCCAGGUCGUUUC | -1.65
UAACUUUAGACGAGGAUCUGAUGGAUAUGGCAGUGGACGUGGAUUUGGGGAUGGCUAUAAUGGGUAUGGAGGAGGACCUGGAGGUGGCAA | -1.68
UCAAGUCCUGUGCUACACAUCGUAUGUACCGAAUCGGAAAGGGAAAGGGAAAGGGAAAGUAUUAUGUUACGCCGUUCGGAUCUGCACUUC | -1.31

Block 4
Target: CCND2, cyclin fold, Cln2 fusion (human)
Technique: yeast growth competition, sequencing
Matrix: yeast
Notes: weak parent motif
Relative to: not given
Reading: higher = stronger binding
Starting sequence: BRCA2 docking peptide (human); PSIKRNLLNEFDR; partner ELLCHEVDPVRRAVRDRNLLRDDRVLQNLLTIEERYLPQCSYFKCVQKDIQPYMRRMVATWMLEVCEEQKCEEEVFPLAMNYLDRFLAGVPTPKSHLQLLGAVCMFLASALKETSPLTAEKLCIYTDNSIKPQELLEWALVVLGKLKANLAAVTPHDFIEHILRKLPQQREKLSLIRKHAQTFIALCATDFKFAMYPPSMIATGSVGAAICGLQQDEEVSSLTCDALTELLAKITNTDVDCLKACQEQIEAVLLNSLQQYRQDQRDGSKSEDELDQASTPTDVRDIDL
Change | normalised enrichment score
L8I | 0.417
S2T | 0.255
K4A | 0.0525
D12N | 0.178
N6K | 0.377
L7V | -0.592
E10Y | -0.322
S2P | -0.083
E10K | 0.0203
L8E | 0.311
K4S | 0.163
F11R | -0.215
D12Q | 0.274
D12S | 0.32

Block 5
Target: Hepatocyte nuclear factor 3-alpha (Foxa1, Mus musculus, UniProt P35582, residues 1-468, full length assumed)
Technique: EMSA with sequencing
Molecule type: double-stranded DNA, one strand shown
Matrix: in vitro
Tested at: 10 and 20 nM
Notes: whole designed probe, mean of two concentrations, ends assumed
Relative to: negative control set to 0
Reading: higher = stronger binding
Shared flanks, not repeated: GTGAGCGGTGCCCATTGATGGGGAAC … TTTCACTGGGATCGTGGGGAC
Target sequence (chain): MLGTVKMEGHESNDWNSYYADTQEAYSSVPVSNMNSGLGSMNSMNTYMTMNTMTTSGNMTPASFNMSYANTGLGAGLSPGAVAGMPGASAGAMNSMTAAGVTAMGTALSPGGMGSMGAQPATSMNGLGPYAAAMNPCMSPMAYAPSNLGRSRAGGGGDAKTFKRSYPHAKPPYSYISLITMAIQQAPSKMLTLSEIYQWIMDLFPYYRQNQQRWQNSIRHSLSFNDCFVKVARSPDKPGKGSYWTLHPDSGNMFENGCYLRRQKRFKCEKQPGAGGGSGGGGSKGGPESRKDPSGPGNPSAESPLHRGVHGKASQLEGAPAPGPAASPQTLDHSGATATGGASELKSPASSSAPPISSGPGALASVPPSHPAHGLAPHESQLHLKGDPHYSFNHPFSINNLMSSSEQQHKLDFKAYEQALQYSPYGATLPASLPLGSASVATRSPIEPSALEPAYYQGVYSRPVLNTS
Oligonucleotide | normalised bound fraction [ratio]
AGATGTAAAACAAAATGGATGTAGACAGCCGATTGTAGACGTAAAGCAAAATGGGTGTAGACAGCTAATTGACTCAACCATACTCTGGGCATGTATTTACTCAATGCTACAATGGGCTGAGTGTTGCTCGAGGTGCTGGAGAGATTTCTGCCAAGAAAAGAGAGAAAAACCCCTGTCCTCCCACATCTGACGC | 0.28
ACTATCATCCATTTTCAGAAAGAAAAATTTATGTAATGATAATGATAACCAAGGAATTATAACTAGCGGATAAAGTGAAAGTTCAGATGTCAAAGTAATCTGAGACTTCTTTGAGTTGATGTAATTCCTGAGAAAAAAATCATTTTACTATATAATAGAGATTATATAACAACTTTAATTTTCATCACAAGAG | -0.0416
TCGGCCAGCCTGGCTTCTGCGCCCCGCCAGGAGGTCGCGGAGCGGAGCGCGGCCAGGAAGTGAGCTGAGAGTGACAGCTCCCCCCACGCTGTTAGATTATTCATGACTCATTCTCTCCACACACTGGCTCTTCTTTCTTTCGGGAGGAGGGGAGAAAGGAGCGGGAGGGCGGGCGGGCAGGGGAGAGGCAGGC | 0.00269
TTTTTTCTGTACAGGGAAAAATAGTGAATATTTCAAAATTGTGAAACAAAGAGTCTCTGTGGCAACTACTCGTTGCATAACATTAGACAATATGCAAACAAATGAGTGTGTCTGTGTTCCAATAAAACTGTATTTACAAAAGCAGAAGGCCACCCATGTGCCAATGTCCAAAGTTTCTCAACCAACCCCTGGT | 0.412
ATCTTCCCCCTCTTCCTTGCCCCACCAGCTCACCTTCCCGGGTTATTTGCACAAAGGAAAATAAATAAAGCCGGCATTCGTTAACGCAGTTCTGGCGCAAACTGCTGTTTGCTCTGCATCTAACATGGTCCTTACGCGAGGCGTGGCTCCGGGAGAGCAAAGCACCGTGTCAGGCGCATGATCCGGGGTGGCC | 0.383
